Literature values as cited in several papers.
Lines come from different studies, so protocols differ.
Tspo: Translocator protein (Tspo, Rattus norvegicus, UniProt P16257)
Chain of UniProt P16257 (whole entry, looked up): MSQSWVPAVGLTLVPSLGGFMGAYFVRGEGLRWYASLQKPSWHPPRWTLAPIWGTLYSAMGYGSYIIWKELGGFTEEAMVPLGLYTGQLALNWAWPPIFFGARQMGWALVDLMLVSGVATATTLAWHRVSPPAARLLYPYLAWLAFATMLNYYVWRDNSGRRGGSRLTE

O=C(O)CCCO — food-maintained responding (baboon; 420 mg/kg, first 2 h; reference: vehicle): decreased
CCCCCc1cc(O)c2c(c1)OC(C)(C)[C@@H]1CC=C(C)C[C@@H]21 — duration of IOP decrease (rabbit alpha-chymotrypsin glaucoma model; topical, 50 µL of 0.4% w/v, submicron emulsion): ≤ 8 h
N[C@@]1(c2ccccc2Cl)CCC[C@@H](O)C1=O — general anaesthetic activity (Wistar rat; dose not given, locomotor activity during recovery): inactive
ibogaine — response rate (human; single treatment, neurological and mental scales): > 90%
C=CCN(CC=C)CCc1c[nH]c2ccc(Br)cc12 — Ki (Tspo): > 10 µM
CC[C@@H]1CN2CCc3c([nH]c4cccc(OC)c34)[C@@H]2C[C@@H]1/C(=C\OC)C(=O)OC — antinociception (MOR knockout mouse C57BL/6J; oral, 45 mg/kg; reference: wild type): decreased
C=CCN(CC=C)CCc1c[nH]c2ccc(OC)cc12 — Ki (Tspo): > 10 µM
CCN(C(=O)[C@@H]1C=C2c3cccc4[nH]cc(c34)C[C@H]2N(C)C1)C(C)C — relative potency (drug discrimination; rat; full substitution, with: LSD 0.08 mg/kg training drug; reference: LSD): 36%
CCCCCCCCCCC(=O)O[C@H]1CC[C@H]2[C@H]3[C@H]([C@@H](C)C[C@]12C)[C@H]1CCC(=O)C=C1C[C@H]3C — duration of LH suppression (measured: plasma LH; castrated adult rat; subcutaneous, 12 mg/kg single): ≥ 18 weeks
CCCC(C(=O)c1ccc2c(c1)OCO2)N1CCCC1.Cl (racemic) — relative potency (ICSS facilitation; rat; reference: cocaine): ~3 fold
